Results of several laboratories.
Each line is one published result; not all experiments were run side by side. “And” joins repeats or separate records; there may be more than shown.
CPL: CPL (Toxoplasma gondii, UniProt Q6DMN0)
PTGS2: Prostaglandin G/H synthase 2 (PTGS2, Homo sapiens, UniProt P35354)
UniProt P35354, sequence (whole entry, looked up): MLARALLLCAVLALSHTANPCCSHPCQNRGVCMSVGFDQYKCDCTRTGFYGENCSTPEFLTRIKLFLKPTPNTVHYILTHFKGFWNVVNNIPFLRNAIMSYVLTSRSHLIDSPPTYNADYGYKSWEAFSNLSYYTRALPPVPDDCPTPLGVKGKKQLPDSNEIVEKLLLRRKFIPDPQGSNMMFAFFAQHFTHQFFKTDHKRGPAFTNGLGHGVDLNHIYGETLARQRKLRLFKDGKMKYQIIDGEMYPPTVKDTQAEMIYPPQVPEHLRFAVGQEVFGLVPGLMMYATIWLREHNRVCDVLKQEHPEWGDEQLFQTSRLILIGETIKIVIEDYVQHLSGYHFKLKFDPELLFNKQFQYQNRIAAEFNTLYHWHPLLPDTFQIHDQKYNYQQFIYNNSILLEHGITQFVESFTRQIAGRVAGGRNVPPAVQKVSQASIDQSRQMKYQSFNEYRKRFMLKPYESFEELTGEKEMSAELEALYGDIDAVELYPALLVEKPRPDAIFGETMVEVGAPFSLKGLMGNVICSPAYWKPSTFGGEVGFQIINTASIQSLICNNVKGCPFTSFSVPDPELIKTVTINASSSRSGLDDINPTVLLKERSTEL
UniProt O14965, sequence (whole entry, looked up): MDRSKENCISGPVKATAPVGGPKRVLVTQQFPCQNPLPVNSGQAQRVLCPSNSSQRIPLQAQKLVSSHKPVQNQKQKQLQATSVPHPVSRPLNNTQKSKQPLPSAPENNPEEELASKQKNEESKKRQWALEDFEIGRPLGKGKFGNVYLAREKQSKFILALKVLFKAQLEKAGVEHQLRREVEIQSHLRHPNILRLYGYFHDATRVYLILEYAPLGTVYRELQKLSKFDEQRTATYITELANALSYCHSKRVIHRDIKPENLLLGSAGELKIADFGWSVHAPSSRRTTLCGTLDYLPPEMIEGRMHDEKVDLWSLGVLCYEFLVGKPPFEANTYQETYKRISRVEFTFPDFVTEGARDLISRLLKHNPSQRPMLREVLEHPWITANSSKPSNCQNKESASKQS
UniProt Q01064, sequence (whole entry, looked up): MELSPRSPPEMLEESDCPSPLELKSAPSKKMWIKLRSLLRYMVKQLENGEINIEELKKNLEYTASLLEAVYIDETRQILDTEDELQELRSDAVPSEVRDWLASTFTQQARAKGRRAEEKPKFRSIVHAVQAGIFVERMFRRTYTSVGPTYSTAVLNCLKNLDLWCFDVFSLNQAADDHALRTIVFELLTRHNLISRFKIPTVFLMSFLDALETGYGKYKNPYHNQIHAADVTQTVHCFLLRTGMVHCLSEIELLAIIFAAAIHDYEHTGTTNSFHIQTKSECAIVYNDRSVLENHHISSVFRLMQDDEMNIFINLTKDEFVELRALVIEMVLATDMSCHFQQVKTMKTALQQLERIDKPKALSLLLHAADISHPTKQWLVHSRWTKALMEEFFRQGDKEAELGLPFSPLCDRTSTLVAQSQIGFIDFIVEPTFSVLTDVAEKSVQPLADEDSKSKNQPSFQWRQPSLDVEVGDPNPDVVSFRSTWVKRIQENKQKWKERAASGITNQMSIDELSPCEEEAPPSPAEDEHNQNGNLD
UniProt P17706, sequence (whole entry, looked up): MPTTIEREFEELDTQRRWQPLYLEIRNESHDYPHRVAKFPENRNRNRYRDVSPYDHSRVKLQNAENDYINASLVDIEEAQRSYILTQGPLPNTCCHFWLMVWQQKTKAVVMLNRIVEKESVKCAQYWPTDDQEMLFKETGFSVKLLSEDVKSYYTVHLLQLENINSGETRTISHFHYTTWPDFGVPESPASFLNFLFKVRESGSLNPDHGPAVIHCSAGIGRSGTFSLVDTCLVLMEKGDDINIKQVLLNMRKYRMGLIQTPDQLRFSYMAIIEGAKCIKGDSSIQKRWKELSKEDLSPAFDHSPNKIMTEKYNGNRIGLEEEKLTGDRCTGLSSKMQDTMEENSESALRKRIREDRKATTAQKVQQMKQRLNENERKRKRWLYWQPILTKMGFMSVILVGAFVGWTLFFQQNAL
UniProt P28300, sequence (whole entry, looked up): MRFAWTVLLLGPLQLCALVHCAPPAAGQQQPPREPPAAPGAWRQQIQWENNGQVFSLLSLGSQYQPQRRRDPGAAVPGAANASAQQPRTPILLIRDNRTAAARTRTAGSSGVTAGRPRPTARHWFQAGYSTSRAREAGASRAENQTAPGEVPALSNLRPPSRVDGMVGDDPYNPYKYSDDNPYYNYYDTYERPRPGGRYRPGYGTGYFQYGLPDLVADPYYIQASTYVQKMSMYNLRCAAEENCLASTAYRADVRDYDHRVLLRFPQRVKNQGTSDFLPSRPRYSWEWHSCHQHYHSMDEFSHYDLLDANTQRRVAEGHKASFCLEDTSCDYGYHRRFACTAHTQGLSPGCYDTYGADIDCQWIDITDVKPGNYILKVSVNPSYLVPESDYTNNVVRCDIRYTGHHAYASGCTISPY
UniProt P33533, sequence (whole entry, looked up): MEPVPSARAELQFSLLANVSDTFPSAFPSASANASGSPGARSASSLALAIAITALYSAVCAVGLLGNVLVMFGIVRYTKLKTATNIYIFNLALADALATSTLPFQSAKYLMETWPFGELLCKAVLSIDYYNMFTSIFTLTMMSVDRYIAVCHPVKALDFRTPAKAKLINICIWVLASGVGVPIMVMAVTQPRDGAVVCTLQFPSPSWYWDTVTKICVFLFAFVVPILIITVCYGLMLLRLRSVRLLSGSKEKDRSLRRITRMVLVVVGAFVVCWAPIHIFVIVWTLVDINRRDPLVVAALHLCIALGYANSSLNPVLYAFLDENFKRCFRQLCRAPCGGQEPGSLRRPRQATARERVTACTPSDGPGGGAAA
UniProt P07237, sequence (whole entry, looked up): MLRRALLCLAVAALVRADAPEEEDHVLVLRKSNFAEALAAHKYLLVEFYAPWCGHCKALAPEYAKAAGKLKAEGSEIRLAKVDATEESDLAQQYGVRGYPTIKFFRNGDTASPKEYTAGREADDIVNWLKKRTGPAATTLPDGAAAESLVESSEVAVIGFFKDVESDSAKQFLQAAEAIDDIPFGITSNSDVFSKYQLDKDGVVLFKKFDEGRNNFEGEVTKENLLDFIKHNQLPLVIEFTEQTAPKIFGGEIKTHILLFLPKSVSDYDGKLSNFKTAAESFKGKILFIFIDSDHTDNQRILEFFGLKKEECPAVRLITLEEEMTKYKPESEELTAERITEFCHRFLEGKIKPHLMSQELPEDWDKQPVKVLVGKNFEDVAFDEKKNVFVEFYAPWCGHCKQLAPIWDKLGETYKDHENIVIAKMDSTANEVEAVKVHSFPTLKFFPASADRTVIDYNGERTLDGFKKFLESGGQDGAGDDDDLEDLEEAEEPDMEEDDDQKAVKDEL
UniProt P35462, sequence (whole entry, looked up): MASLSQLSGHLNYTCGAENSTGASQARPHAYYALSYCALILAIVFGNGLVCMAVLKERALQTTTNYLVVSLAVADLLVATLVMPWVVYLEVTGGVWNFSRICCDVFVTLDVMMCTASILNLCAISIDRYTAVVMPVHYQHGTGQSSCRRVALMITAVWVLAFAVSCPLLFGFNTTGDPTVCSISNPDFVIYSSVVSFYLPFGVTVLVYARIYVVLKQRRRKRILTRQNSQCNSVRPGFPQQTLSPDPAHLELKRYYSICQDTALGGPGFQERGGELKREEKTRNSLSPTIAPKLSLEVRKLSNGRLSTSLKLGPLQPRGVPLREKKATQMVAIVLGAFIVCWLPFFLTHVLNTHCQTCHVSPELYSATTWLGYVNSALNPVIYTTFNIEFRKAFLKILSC

SMILES = C=CCCN(Cc1ccc(F)cc1)c1nc(C#N)nc(N2CCOCC2)n1; target = CPL; assay = enzyme activity, inhibitor; how to read = relative to: human over Toxoplasma IC50; selectivity ratio = 0.44
SMILES = COc1ccccc1N1CCN(CCCCNC(=O)/N=N/c2ccc(F)cc2)CC1; target = D(3) dopamine receptor (DRD3, Homo sapiens, UniProt P35462); assay = radioligand binding; system = CHO membranes; setting = added: [3H]spiperone; how to read = relative to: Ki D2 over Ki D3; selectivity ratio = 10
SMILES = N#CC1=C(N)n2c(nnc2-c2ccncc2)NC1c1ccc(Cl)cc1 (stereo not shown); target = PTGS2; assay = enzyme activity; how to read = relative to: IC50 COX-1 over IC50 COX-2; selectivity ratio = 11
SMILES = N[C@@H](Cc1ccc(C(=O)NCCc2ccc3ccccc3c2)cc1)C(=O)N1Cc2ccccc2C[C@H]1C(=O)N[C@@H](Cc1ccccc1)C(=O)N[C@@H](Cc1ccccc1)C(=O)O; target = Delta-type opioid receptor (Oprd1, Rattus norvegicus, UniProt P33533); assay = binding, [3H]DSLET displacement; system = rat brain membranes; how to read = relative to: Ki mu over Ki delta; selectivity ratio = 250 to 520
SMILES = Cc1ccc2c(n1)c(-c1cccc(S(C)(=O)=O)c1)c(C)n2C/C(F)=C/CN; target = Protein-lysine 6-oxidase (Homo sapiens, UniProt P28300); assay = inhibitor, Amplex Red; how to read = relative to: IC50 Protein-lysine 6-oxidase over IC50 LOXL2; selectivity ratio = > 80 fold
SMILES = CC(=O)c1cc2ccccc2oc1=Nc1nccs1; target = PTGS2; assay = enzyme activity, inhibitor, enzyme immunoassay; how to read = relative to: IC50 COX-1 over IC50 COX-2; selectivity ratio = 3.03
SMILES = COCCCN1CCc2c(Cc3ccc(Cl)cc3)[nH]c3c(OC(F)F)ccc(c23)C1=O; target = Dual specificity calcium/calmodulin-dependent 3',5'-cyclic nucleotide phosphodiesterase 1B (Homo sapiens, UniProt Q01064); assay = enzyme activity, inhibitor; how to read = relative to: PDE1B IC50 over PDE5A1 IC50; selectivity ratio = 814
SMILES = CC(C)CCN(Cc1ccccc1[N+](=O)[O-])c1nc(C#N)nc(N2CCOCC2)n1; target = CPL; assay = enzyme activity, inhibitor; how to read = relative to: human over Toxoplasma IC50; selectivity ratio = 3 and 3.6
SMILES = N#CC1=C(N)n2c(nnc2-c2ccccc2)NC1c1ccc(Cl)cc1 (stereo not shown); target = PTGS2; assay = enzyme activity; how to read = relative to: IC50 COX-1 over IC50 COX-2; selectivity ratio = 9
SMILES = CC(C)[C@H](NC(=O)[C@H](CCC(=O)O)NC(=O)[C@@H](NC(=O)[C@@H](C)c1cccc(C(=O)c2ccccc2)c1)C(C)C)C(=O)N[C@@H](CCC(=O)O)C(=O)O; target = PTGS2; assay = fluorescence; how to read = relative to: COX-1 IC50 over COX-2 IC50; selectivity ratio = 4.2
SMILES = N#Cc1nc(N2CCOCC2)nc(N(Cc2ccccc2[N+](=O)[O-])CC2CCCNC2)n1 (stereo not shown); target = CPL; assay = enzyme activity, inhibitor; how to read = relative to: human over Toxoplasma IC50; selectivity ratio = 0.3
SMILES = CCCCCCCCCCCC1=C(O)C(=O)C=C(NCCN2CCOCC2)C1=O; target = PTGS2; assay = enzyme activity, enzyme immunoassay; how to read = relative to: COX-1 IC50 over COX-2 IC50; selectivity ratio = 2.06
SMILES = CC(C)CCN(Cc1ccncc1)c1nc(C#N)nc(N2CCOCC2)n1; target = CPL; assay = enzyme activity, inhibitor; how to read = relative to: human over Toxoplasma IC50; selectivity ratio = 0.4
SMILES = CCCCc1ccc(S(=O)(=O)N2CC2C(=O)OC)cc1 (stereo not shown); target = Protein disulfide-isomerase (P4HB, Homo sapiens, UniProt P07237); assay = insulin reduction, inhibitor; how to read = relative to: IC50 PDIA1 over IC50 PDIA3; selectivity ratio = 0.0004 to 0.0035
SMILES = Cc1cc(Nc2nc(C[C@@]3(C(=O)O)CCN(Cc4cccc(Cl)c4F)[C@H](C)C3)cc(C)c2F)[nH]n1; target = Aurora kinase A (AURKA, Homo sapiens, UniProt O14965); assay = Aurora kinase phosphorylation, Western blot; system = NCI-H446; how to read = relative to: Aurora A over Aurora B; selectivity ratio = > 2000 fold
SMILES = N[C@@H](CCC(=O)N[C@@H](CS[Se]Cc1ccc(C(=O)Nc2cc(C(F)(F)F)c(Br)c(C(F)(F)F)c2)cc1)C(=O)NCC(=O)O)C(=O)O; target = Tyrosine-protein phosphatase non-receptor type 2 (PTPN2, Homo sapiens, UniProt P17706); assay = enzyme activity; setting = added: pNPP, GSH 1 mM; how to read = relative to: IC50 PTPN2 over mPTPA; selectivity ratio = > 100

Some of these lines once more:
SMILES = COc1ccccc1N1CCN(CCCCNC(=O)/N=N/c2ccc(F)cc2)CC1; target = D(3) dopamine receptor (DRD3, Homo sapiens, UniProt P35462); assay = radioligand binding; system = CHO membranes; setting = added: [3H]spiperone; how to read = relative to: Ki D2 over Ki D3; selectivity ratio = 10
